Measurements from different studies.
Every numbered part comes from another study and shows a few of its results, in no order. Changes are numbered by the printed parent chain.

Sample 1 — target: JUND, bZIP domain (human); method: DHFR protein complementation; medium: yeast; baseline: wild-type JUN-FOS pair; direction: higher = stronger binding
Notes: single substitutions, most at no-binding floor
Starting sequence: JUN, bZIP domain (human); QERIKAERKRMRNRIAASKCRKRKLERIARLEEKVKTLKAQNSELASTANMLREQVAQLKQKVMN; partner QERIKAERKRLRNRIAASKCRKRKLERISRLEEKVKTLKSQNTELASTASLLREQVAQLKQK
`A57H` gave a binding fitness of -0.861 natural log.
`E33I` has a binding fitness of -1.18 natural log.
For `S43D`, the binding fitness was -0.385 natural log.
`K39L` gave a binding fitness of -0.621 natural log.
For `Q55E`, the binding fitness was -0.531 natural log.
With `S47Q` the binding fitness was -0.527 natural log.
`E32M` gave a binding fitness of -1.13 natural log.
The binding fitness of `A29H` is reported as -0.722 natural log.
For `A57V`, the binding fitness was -0.911 natural log.
For `E32T`, the binding fitness was -1 natural log.
For `T48M`, the binding fitness was -0.736 natural log.
The binding fitness of `A46F` is reported as -1.07 natural log.
`E44I` has a binding fitness of -0.823 natural log.
With `A57W` the binding fitness was -1.17 natural log.
For `S47R`, the binding fitness was -0.483 natural log.
The binding fitness of `A49I` is reported as -0.121 natural log.
For `S43I`, the binding fitness was -0.538 natural log.
`R30T` has a binding fitness of -0.542 natural log.
`K39I` has a binding fitness of -0.775 natural log.
With `A29Y` the binding fitness was -1.06 natural log.
`M51K` gave a binding fitness of -0.541 natural log.
With `T37W` the binding fitness was -0.67 natural log.
With `A40R` the binding fitness was -0.633 natural log.
The binding fitness of `A57K` is reported as -0.573 natural log.
With `R30V` the binding fitness was -0.516 natural log.

Sample 2 — target: UBE2H UBC core domain (UniProt P62256); method: yeast two-hybrid; medium: yeast; notes: mostly zero background; baseline: not given; direction: higher = stronger interaction
Sequence of UniProt P62256 (whole entry, looked up): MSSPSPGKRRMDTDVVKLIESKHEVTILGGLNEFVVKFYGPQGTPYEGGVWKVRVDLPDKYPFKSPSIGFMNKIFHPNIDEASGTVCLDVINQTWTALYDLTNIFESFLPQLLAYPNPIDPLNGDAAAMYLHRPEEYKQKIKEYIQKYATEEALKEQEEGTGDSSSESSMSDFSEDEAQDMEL
B1: TRIM32 RING domain (UniProt Q13049); chain NLDALREVLECPICMESFTEEQLRPKLLHCGHTICRQCLEKLLASSINGVRCPFCSKITRITSLTQ
B2: RMND5B RING domain (UniProt Q96G75); chain MKCWYHSVFACPILRQQTSDSNPPIKLICGHVISRDALNKLINGGKLKCPYCPMEQNPADGK
B3: MDM2 RING domain (UniProt Q00987); chain TQDKEESVESSLPLNAIEPCVICQGRPKNGCIVHGKTGHLMACFTCAKKLKKRNKPCPVCRQPIQMIVLTYFP
B4: TRIM74 RING domain (UniProt Q86UV6); chain SLLELEDWLQCPICLEVFKESLMLQCGHSYCKGCLVSLSYHLDTKVRCPMCWQVVDGSSSLP
B5: RNF130 RING domain (UniProt Q86XS8); chain DKETDPDFDHCAVCIESYKQNDVVRILPCKHVFHKSCVDPWLSEHCTCPMCKLNILKALGIV
B6: TRIM47 RING domain (UniProt Q96LD4); chain MDGSGPFSCPICLEPLREPVTLPCGHNFCLACLGALWPHRGASGAGGPGGAARCPLCQEPFPDGLQLR
B7: UBE4B RING domain (UniProt O95155); chain KNARAEIDYSDAPDEFRDPLMDTLMTDPVRLPSGTIMDRSIILRHLLNSPTDPFNRQTLTESMLEPVPELKEQIQAWMREKQNSDH
Under “lacZ reporter activity”, `VPADASPDSKCPICLDRFDNVSYLDRCLHKFCFRCVQEWSKNKAECPLCKQPFDSIFHSV (TOPORS RING domain (UniProt Q9NS56))` is recorded as 0.
Under “lacZ reporter activity”, `GSEEEEIPFRCFICRQAFQNPVVTKCRHYFCESCALEHFRATPRCYICDQPTGGIFNPA (RNF113B RING domain (UniProt Q8IZP6))` is recorded as 0.
`KITELNPHLMCALCGGYFIDATTIVECLHSFCKTCIVRYLETNKYCPMCDVQVHKTRPLL (PCGF2 RING domain (UniProt P35227))`: “lacZ reporter activity” 0.
`B1 (TRIM32 RING domain)`: “lacZ reporter activity” 0.
Under “lacZ reporter activity”, `AAQLLEEKLTCAICLGLYQDPVTLPCGHNFCGACIRDWWDRCGKACPECREPFPDGAELR (TRIM65 RING domain (UniProt Q6PJ69))` is recorded as 0.
Under “lacZ reporter activity”, `B2 (RMND5B RING domain)` is recorded as 0.
`B3 (MDM2 RING domain)`: “lacZ reporter activity” 0.
Under “lacZ reporter activity”, `PLRRLQEEKLCKICMDRHIAVVFIPCGHLVTCKQCAEAVDRCPMCSAVIDFKQRVF (BIRC8 RING domain (UniProt Q96P09))` is recorded as 0.
`B4 (TRIM74 RING domain)`: “lacZ reporter activity” 0.
For `B5 (RNF130 RING domain)`, “lacZ reporter activity” read 0.
`B6 (TRIM47 RING domain)` — result for “lacZ reporter activity”: 0.
`B7 (UBE4B RING domain)` — result for “lacZ reporter activity”: 0.

Sample 3 — method: aptamer microarray, sandwich; molecule type: DNA with 2'F-ANA; medium: in vitro; tested at: 200 nM; added: Cy3 exosite-II aptamer, 400 nM; direction: higher = stronger binding; strand: GGTTGGTGTGGTTGG
Target: Prothrombin, mature alpha-thrombin (F2, Homo sapiens, UniProt P00734)
Notes: whole 15-mer aptamer, many near background
For `2'F-ANA at 1 3 4 6 8 13`, “mean fluorescence intensity” read 226 a.u.
Under “mean fluorescence intensity”, `2'F-ANA at 2 6 9 11 12 14` is recorded as 152 a.u.
Under “mean fluorescence intensity”, `2'F-ANA at 3 6 8 9 11 14 15` is recorded as 482 a.u.
`2'F-ANA at 3 5 6 8 12 14 15`: “mean fluorescence intensity” 68 a.u.
`2'F-ANA at 3 4 5 7 8 9 11 15`: “mean fluorescence intensity” 85.4 a.u.
For `2'F-ANA at 3 6 7 8 9 11 13 14 15`, “mean fluorescence intensity” read 559 a.u.
Under “mean fluorescence intensity”, `2'F-ANA at 3 4 10 12 14` is recorded as 226 a.u.
For `2'F-ANA at 1 6 7 9 10 11 12 13 14 15`, “mean fluorescence intensity” read 47.6 a.u.
For `2'F-ANA at 3 5 6 8 10 13`, “mean fluorescence intensity” read 51.9 a.u.
`2'F-ANA at 2 3 6 10 12` — result for “mean fluorescence intensity”: 434 a.u.
`2'F-ANA at 1 4 6 8 11 13`: “mean fluorescence intensity” 90.7 a.u.
`2'F-ANA at 2 4 7 11 13` — result for “mean fluorescence intensity”: 216 a.u.
`2'F-ANA at 1 5 6 7 8 9 10` — result for “mean fluorescence intensity”: 47.6 a.u.
Under “mean fluorescence intensity”, `2'F-ANA at 1 2 3 5 6 13 15` is recorded as 51.5 a.u.
For `2'F-ANA at 6 9 10 11 13 14`, “mean fluorescence intensity” read 89.8 a.u.
`2'F-ANA at 3 4 7 8 9 10 11 12 15` — result for “mean fluorescence intensity”: 343 a.u.
Under “mean fluorescence intensity”, `2'F-ANA at 1 3 6 7 14 15` is recorded as 86.4 a.u.
Under “mean fluorescence intensity”, `2'F-ANA at 2 3 4 7 10 12 13 14` is recorded as 194 a.u.
Under “mean fluorescence intensity”, `2'F-ANA at 2 4 6 7 8 9 12` is recorded as 652 a.u.
Under “mean fluorescence intensity”, `2'F-ANA at 1 3 4 5 6 8 9 10 12 13 14` is recorded as 50.9 a.u.
Under “mean fluorescence intensity”, `2'F-ANA at 1 4 6 7 9 11 13 14` is recorded as 49.4 a.u.

Sample 4 — method: DHFR PCA, dose-response; medium: yeast; notes: Hill fit, mean, not affinity; added: (+)-ABA, dose series; direction: lower = more sensitive
Target: ABI1, truncated, D143A, DHFR fusion (Arabidopsis thaliana, UniProt P49597)
Starting sequence: PYL1, truncated, DHFR fusion (Arabidopsis thaliana, UniProt Q8VZS8); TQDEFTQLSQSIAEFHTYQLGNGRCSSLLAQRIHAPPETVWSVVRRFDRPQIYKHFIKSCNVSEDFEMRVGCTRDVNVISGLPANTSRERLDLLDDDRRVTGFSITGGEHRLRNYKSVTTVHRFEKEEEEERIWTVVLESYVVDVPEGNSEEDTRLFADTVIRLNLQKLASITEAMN
`R69M` has an ABA EC50 of 2.4 µM.
For `R98L`, the ABA EC50 was 5.79 µM.
With `L164A` the ABA EC50 was 0.937 µM.
For `I12S`, the ABA EC50 was 181 µM.
`K116Y` has an ABA EC50 of 308 µM.
For `I162N`, the ABA EC50 was 161 µM.
`S150L` gave an ABA EC50 of 57.7 µM.
With `S150A` the ABA EC50 was 46.4 µM.
`G108A` has an ABA EC50 of 443 µM.
`V70I` has an ABA EC50 of 1.84 µM.
The ABA EC50 of `E174H` is reported as 17 µM.
With `S104M` the ABA EC50 was 162 µM.
With `F103V` the ABA EC50 was 537 µM.
The ABA EC50 of `L28N` is reported as 174 µM.
`R24W` has an ABA EC50 of 57 µM.
For `A13R`, the ABA EC50 was 3.88 µM.
`I105N` has an ABA EC50 of 146 µM.
For `N114F`, the ABA EC50 was 439 µM.
`V121I` gave an ABA EC50 of 3.76 µM.
The ABA EC50 of `R155C` is reported as 5.74 µM.
`A35H` gave an ABA EC50 of 598 µM.
`R113I` has an ABA EC50 of 6.41 µM.
`R98E` gave an ABA EC50 of 22.3 µM.
`V43R` gave an ABA EC50 of 150 µM.

Sample 5 — method: RNA Bind-n-Seq; molecule type: RNA; medium: in vitro; tested at: not given; notes: 4-mer, random 30-nt RNA, single round; added: RocA, ADP, phosphate; baseline: input library; direction: higher = stronger binding
Target: ATP-dependent RNA helicase DDX3X, helicase core (DDX3X, Homo sapiens, UniProt O00571, residues 132-607)
Sequence of UniProt O00571 (132-607, looked up): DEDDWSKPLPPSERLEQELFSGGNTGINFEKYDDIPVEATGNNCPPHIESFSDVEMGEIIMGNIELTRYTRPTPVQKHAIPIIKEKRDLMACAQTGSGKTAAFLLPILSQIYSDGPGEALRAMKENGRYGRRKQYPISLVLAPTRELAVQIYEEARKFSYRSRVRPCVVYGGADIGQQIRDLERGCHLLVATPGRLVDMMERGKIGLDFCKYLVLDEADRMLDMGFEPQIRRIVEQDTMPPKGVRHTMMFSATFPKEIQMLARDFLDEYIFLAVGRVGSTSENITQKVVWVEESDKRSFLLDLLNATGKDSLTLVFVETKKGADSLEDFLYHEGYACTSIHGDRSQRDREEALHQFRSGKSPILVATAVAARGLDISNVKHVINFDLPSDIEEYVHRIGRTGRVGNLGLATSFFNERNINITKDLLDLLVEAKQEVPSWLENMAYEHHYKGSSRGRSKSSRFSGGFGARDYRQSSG
For `CGCA`, the 4-mer enrichment was 0.714 fold.
For `UAGU`, the 4-mer enrichment was 1.04 fold.
The 4-mer enrichment of `CCUC` is reported as 0.708 fold.
For `ACGC`, the 4-mer enrichment was 0.648 fold.
With `ACAC` the 4-mer enrichment was 0.716 fold.
For `AAGC`, the 4-mer enrichment was 0.822 fold.
For `CAAC`, the 4-mer enrichment was 0.705 fold.
`UAAA` gave a 4-mer enrichment of 0.983 fold.
With `CGGU` the 4-mer enrichment was 0.811 fold.
With `CGUA` the 4-mer enrichment was 0.83 fold.
`UCCA` has a 4-mer enrichment of 0.758 fold.
The 4-mer enrichment of `AGAU` is reported as 1.16 fold.
For `GUGG`, the 4-mer enrichment was 1.4 fold.
`ACUG` gave a 4-mer enrichment of 0.76 fold.

Sample 6 — target: CCNE1, cyclin fold, Cln2 fusion (human); method: yeast growth competition, sequencing; medium: yeast; notes: weak parent motif; baseline: not given; direction: higher = stronger binding
Starting sequence: MASTL docking peptide (human); PMIAKNLMCELDE
Under “normalised enrichment score”, `PMIAKNLMPELDE [C9P]` is recorded as -0.0305.
Under “normalised enrichment score”, `PMIAKNLMCELPE [D12P]` is recorded as -0.112.
`PMQAKNLMCELDE [I3Q]`: “normalised enrichment score” -0.127.
`PMIAKNLMGELDE [C9G]`: “normalised enrichment score” -0.118.
For `PMIAKNLWCELDE [M8W]`, “normalised enrichment score” read 0.45.
Under “normalised enrichment score”, `PMIDKNLMCELDE [A4D]` is recorded as -0.132.
`PMIAKNLMCEMDE [L11M]` — result for “normalised enrichment score”: -0.357.
Under “normalised enrichment score”, `PWIAKNLMCELDE [M2W]` is recorded as -0.125.
`PMIAKNLMCECDE [L11C]`: “normalised enrichment score” -0.0435.
For `PMIAKCLMCELDE [N6C]`, “normalised enrichment score” read -0.00926.
Under “normalised enrichment score”, `PMIGKNLMCELDE [A4G]` is recorded as -0.0193.
`PMIAKNLMCMLDE [E10M]` — result for “normalised enrichment score”: 0.31.
For `PMIAKYLMCELDE [N6Y]`, “normalised enrichment score” read 0.115.
`PMIAKNLMCELEE [D12E]` — result for “normalised enrichment score”: 0.138.
For `PMIAKNLMRELDE [C9R]`, “normalised enrichment score” read 0.082.
Under “normalised enrichment score”, `PMIAKNLMCPLDE [E10P]` is recorded as -0.00272.
`PMIAKNLQCELDE [M8Q]` — result for “normalised enrichment score”: -0.141.
Under “normalised enrichment score”, `PMILKNLMCELDE [A4L]` is recorded as -0.0276.
`PMIACNLMCELDE [K5C]` — result for “normalised enrichment score”: 0.249.
For `PMIMKNLMCELDE [A4M]`, “normalised enrichment score” read -0.0279.
Under “normalised enrichment score”, `PMIAPNLMCELDE [K5P]` is recorded as 0.108.
Under “normalised enrichment score”, `PMIATNLMCELDE [K5T]` is recorded as 0.0863.
Under “normalised enrichment score”, `PMIAKNLMCELLE [D12L]` is recorded as -0.00969.
Under “normalised enrichment score”, `PMIAKNLMCEEDE [L11E]` is recorded as 0.056.
For `PPIAKNLMCELDE [M2P]`, “normalised enrichment score” read 0.0837.
